Measured values pooled from the literature.
A part holds a random share of what one study measured.

Series 1
Target: Histone acetyltransferase KAT6A, winged helix 2, GST fusion (KAT6A, Homo sapiens, UniProt Q92794, residues 85-181)
Technique: protein binding microarray
Molecule type: double-stranded DNA, one strand shown
Sample: in vitro
Concentration: not given
Setting: 8-mer, flanks averaged, mean of 2 arrays, mostly near background
Relative to: not given
Direction: higher = stronger binding
Construct (chain): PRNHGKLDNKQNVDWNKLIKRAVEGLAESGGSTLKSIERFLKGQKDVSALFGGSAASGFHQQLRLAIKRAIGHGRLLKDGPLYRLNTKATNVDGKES
Sequence	E-score
TCCCTACA	-0.11
AACGGATC	-0.019
GAATCCAA	-0.0429
CCATTAGA	-0.075
TAAGAGAA	0.018
ATCATTGA	0.0543
CCGGCGAC	-0.0296
AGATGGGC	-0.0976
AGTGGAAA	0.0347
CGAGGGGA	0.144
ACCTTAGC	-0.0359
AGAAAGAT	-0.0324
CCCGATGA	0.207
CAGGATAG	0.0127
GATGCATA	0.0304
AGCTTAAG	-0.0149
ACATGAAA	0.00959
GAACGAAA	-0.0676
CAACATGC	-0.00799
AACTATCA	-0.0451
CCTACCAA	0.0718
AGTAACAG	-0.0597

Series 2
Target: PABPC1L2, full length, GST fusion (mouse, UniProt A0ABA7IW68)
Technique: RNAcompete
Molecule type: RNA
Sample: in vitro
Concentration: 20 nM
Setting: 7-mer, probes averaged, single round
Relative to: mean of 7-mers
Direction: higher = stronger binding
Residues (chain): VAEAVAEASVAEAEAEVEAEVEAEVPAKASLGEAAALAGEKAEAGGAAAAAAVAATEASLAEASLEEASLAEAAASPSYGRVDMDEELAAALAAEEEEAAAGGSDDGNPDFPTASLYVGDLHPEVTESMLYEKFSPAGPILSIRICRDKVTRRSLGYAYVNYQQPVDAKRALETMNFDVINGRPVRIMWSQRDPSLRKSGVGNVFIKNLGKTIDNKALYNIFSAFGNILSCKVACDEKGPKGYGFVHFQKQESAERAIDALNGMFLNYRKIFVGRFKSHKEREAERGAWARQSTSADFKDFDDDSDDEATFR
Sequence	7-mer Z-score
AGUCAAG	-0.0736
AAAUAGG	2.85
GUAAUCU	-0.271
GUCGGCC	-0.246
AGGCGUA	0.0424
CAUCAUC	-0.298
UGGGCGA	0.291
CUCAUCC	-0.425
ACCUUCU	-0.273
UUCUACG	-0.166
UAACCAC	-0.11
UCGCAUU	-0.476
GUCGGGA	0.157
GGGGCAA	0.675
GUUCACA	-0.333
GGAAGCC	-0.104
GGCUCAG	0.204
GGUGCGU	0.0823
CACCGUG	-0.108
GAAUUUG	-0.315
ACGCAAG	-0.103
GGUCUUG	-0.128
AGGCUUC	-0.255
GUUACGG	-0.271
AAAAACA	23.1

Series 3
Target: Centromere-binding protein 1, full length, His-tagged (CBF1, Saccharomyces cerevisiae, UniProt P17106, residues 1-351)
Sequence of UniProt P17106 (whole entry, looked up): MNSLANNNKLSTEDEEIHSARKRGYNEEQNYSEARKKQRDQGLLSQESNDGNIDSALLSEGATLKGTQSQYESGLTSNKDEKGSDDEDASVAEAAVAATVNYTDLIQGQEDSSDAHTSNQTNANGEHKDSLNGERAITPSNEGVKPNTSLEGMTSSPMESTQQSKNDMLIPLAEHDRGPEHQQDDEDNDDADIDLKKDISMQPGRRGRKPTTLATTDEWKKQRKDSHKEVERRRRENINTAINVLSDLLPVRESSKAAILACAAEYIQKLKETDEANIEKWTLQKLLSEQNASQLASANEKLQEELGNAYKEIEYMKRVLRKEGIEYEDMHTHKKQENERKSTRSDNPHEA
Technique: competition protein-binding microarray
Molecule type: double-stranded DNA, one strand shown
Sample: in vitro
Concentration: 2 µM
Setting: whole 60-bp probe, lowest competitor level
Together with: Pho4 competitor, 0.05 µM
Direction: higher = stronger binding
Shared flanks, not repeated: … GTCTTGATTCGCTTGACGCTGCTG
Sequence	fluorescence intensity
TGCGCAACAACTTGGGGCGTGGGTGTATGTCTAGAA	57.5 a.u.
AAAGCGGTAATTTGACTTGTGGGTGCAGATATCTAT	89.8 a.u.
AATTTAAGCCTTGGCAACGTGTTGAACCAAGTCGAC	88.3 a.u.
TGCGCAACAACTTGTCACTAGACTTTATGTCTAGAA	74.9 a.u.
ATTTGGTTCGAGCGTCATGATTGCTAAGGAAGTTAA	53.2 a.u.
GGGGCTGTCCCGCCCCACGTGGACCGGCTCCCCGCT	372 a.u.
AGATTATTACAAGTGGTCGTGATGGACGTAAAGTTT	96.1 a.u.
GACTTACATCTCTGGCACGTGGTGAAGTACGAGCCC	1620 a.u.
CTTCTGTAAATTTGTCACGTGACTTGACGCGCCCCG	23000 a.u.
CCGCCAAGAGAAATGCTCGTGACTCGTTGGCTCAAT	421 a.u.
TGTTCAAAAAGCCATCACGTGGAACCCCGAAAAAAA	3300 a.u.
CTTCTGTAAATTTGGAGAGTGGGTGGACGCGCCCCG	98.8 a.u.
TGTGTCATCTTCGCGCGCGTGCTAAAAAAAACGAAT	163 a.u.
CGGGGTTAAGTTTGTCACATTACTTGCTTGCAGCAG	112 a.u.
CATTGCGGCGGGCACCACATGAACTTCGTCAAGAAT	82.9 a.u.
TTTAGGGCTACTTGGAATGTGATATCATTCTTACAA	80.3 a.u.
AGTCTCTTTTAGTTCACCGTGACGGTACGCACTGAT	99.4 a.u.
TCGAGAGATAAAGTACATGTGCCTAGGTAAGCTGTA	133 a.u.
CTGTGCTGGTCAGCCCATGTGTCTGTCCCTGGCTGG	69.7 a.u.
AGCGATACGACAATTTTCGTGGGTATAGACTTCACC	71.2 a.u.

Series 4
Target: RING finger protein unkempt homolog, zinc fingers 1-6, GST-SBP tag (UNK, Homo sapiens, UniProt Q9C0B0, residues 30-357)
Technique: RNA Bind-n-Seq
Molecule type: RNA
Sample: in vitro
Concentration: not given
Setting: RNA with constant flanks, ends assumed
Relative to: input RNA pool
Direction: higher = stronger binding
Shared flanks, not repeated: GGGAGUUCUACAGUCCGACGAUC … CAACAGAGGAUUGAGCAUCA
Construct (chain): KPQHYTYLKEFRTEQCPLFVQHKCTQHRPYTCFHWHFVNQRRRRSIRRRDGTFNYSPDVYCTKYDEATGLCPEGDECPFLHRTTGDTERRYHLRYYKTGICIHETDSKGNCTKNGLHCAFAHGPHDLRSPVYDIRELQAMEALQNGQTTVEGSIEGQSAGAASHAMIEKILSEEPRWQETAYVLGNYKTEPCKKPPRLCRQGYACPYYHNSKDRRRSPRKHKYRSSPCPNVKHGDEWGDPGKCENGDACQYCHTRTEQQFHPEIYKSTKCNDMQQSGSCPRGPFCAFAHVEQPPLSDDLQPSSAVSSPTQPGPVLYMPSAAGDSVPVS
Sequence	bound/input enrichment
UUUAUUGCAGCAGUUGACCUAGAUGAGAUGUCGUUCACUUUUACUGAGCUACAGAAAAACACCGAAAUCAGUGUCCAUAAAUUCUUUAACUUACUAAAAGAAAUUGAUACCAGUACCAAA	0.196 ratio
CCACUUCGAAGCGUCUUGGAGCAAUCCAAGUUAAAGAAAGAAGAUAUUUAUGCAGUGGAGACCGUUGGUGGUGCCACACGAAUCCCUGCAGUGAAAGAGAAGAUCAGCAAGUUUUUUGGU	0.155 ratio
GAGGUAGAUCAAGAGCUCGUUGAACUACUAGUGAAAGAAACGGAAGCAAGAUUUCCAGAUGCCGCAAAUGGGUUUAUUGAGGAAAUAAUUCAUUUUAAGAAUUAUUAUGAUCUGAAUGUA	0.222 ratio
GGACUUGAACAACUUACAAAGUCUCCGGUGGAAUUUGUAGAAUACAACAAGAUGCAACUCCGCAGGAUAUAUCCCAAGGGAACACGUGUGGAUUCAUCCAACUACAUGCCUCAACUCUUC	0.0926 ratio
UUAAUUUUUUUAAUUUUUUUAUUUUUUAUUUUCUUUUUGGUUUGGGGAGGGAGAAAAGUUCUCCGCACAAAUGUUUUACAUAAUUUGUACCAAAAAAAAAAAAAAAGGAAAGGAAAGAAA	1.32 ratio
UUUCUUUUUCUUUUUCUUUUUAAAAUGUUAAUGCCCGUUGUCUUUCCUGGGCUGUUUGCCCGCGGAAGGAUGCCAGGGAAGCCAGCAGGAGCUAGGAGAGAGUCCGUGGAUCUCGAAAGA	0.257 ratio
GUUGUACCGAAAGGCAAAGGAGAACAGAUUGCAAGGGAGCAUGGUAUUAGGUUUUUUGAGACCCGUGCAAAAGCAAAUAUAAACAUCGAAAAGGCGUUCCUCACAUUAGCUGAAGACAUC	0.65 ratio
AGUGGGAACAUUACUUUUGAUGAGAUUGUCAACAUUGCCCGGCAGAUGAGACACCGGUCUUUGGCCCGAGAACUUUCUGGAACUAUCAAGGAGAUCCUGGGUACUGCACAGUCUGUGGGC	0.112 ratio
AGAGACUGGGUCACAAACCCUGGGCUUUUCAAUCAGCCACUGACUUCCCUUCCUGUCAGCCGCAUACCCAUCUAUAAAUUACCAGAGGGAUCACCAACAUGGCUGGGAAUAUCCUGCAGU	0.314 ratio
UCUUCAGAUAUGAAAAUGACUCAGCUAUUCACCAAAGUUGAAUCAGAAGAUACAAGCCGCCUCUUUGACAAACUUAAGAAGGAACCUGAUGCUUUAACUUUGCUGGCCCCAGCCGCUGGA	0.31 ratio
AAGCAAUGUGGGAAAACUUUCAAUUGGCCCAUAUCUUUACGAAAACAUAUGAGAACACAUACCCGAGAGAAACCCUAUGAAUGUAAGCAGUGUGGGAAAGCCUUCAGCUUGUCUGCUUGC	0.0938 ratio

Further values, each from its own experiment
Molecule	target	assay	test system	setting	scale	measurement	result
PhoQ, residues 284 288 289 292 302 303 ALSMDL	PhoP, residues 12 14 15 18 19 DLLYY (Escherichia coli, UniProt P23836)	Sort-seq, measured: YFP reporter	E. coli	PhoQ-PhoP variant library, together with: 10 µM Mg2+	relative to: high Mg2+ state, higher = stronger signaling	fold induction	1.4

Repeated from above (series 4):
Sequence	bound/input enrichment
UUAAUUUUUUUAAUUUUUUUAUUUUUUAUUUUCUUUUUGGUUUGGGGAGGGAGAAAAGUUCUCCGCACAAAUGUUUUACAUAAUUUGUACCAAAAAAAAAAAAAAAGGAAAGGAAAGAAA	1.32 ratio
CCACUUCGAAGCGUCUUGGAGCAAUCCAAGUUAAAGAAAGAAGAUAUUUAUGCAGUGGAGACCGUUGGUGGUGCCACACGAAUCCCUGCAGUGAAAGAGAAGAUCAGCAAGUUUUUUGGU	0.155 ratio
AAGCAAUGUGGGAAAACUUUCAAUUGGCCCAUAUCUUUACGAAAACAUAUGAGAACACAUACCCGAGAGAAACCCUAUGAAUGUAAGCAGUGUGGGAAAGCCUUCAGCUUGUCUGCUUGC	0.0938 ratio
GUUGUACCGAAAGGCAAAGGAGAACAGAUUGCAAGGGAGCAUGGUAUUAGGUUUUUUGAGACCCGUGCAAAAGCAAAUAUAAACAUCGAAAAGGCGUUCCUCACAUUAGCUGAAGACAUC	0.65 ratio
GGACUUGAACAACUUACAAAGUCUCCGGUGGAAUUUGUAGAAUACAACAAGAUGCAACUCCGCAGGAUAUAUCCCAAGGGAACACGUGUGGAUUCAUCCAACUACAUGCCUCAACUCUUC	0.0926 ratio
UCUUCAGAUAUGAAAAUGACUCAGCUAUUCACCAAAGUUGAAUCAGAAGAUACAAGCCGCCUCUUUGACAAACUUAAGAAGGAACCUGAUGCUUUAACUUUGCUGGCCCCAGCCGCUGGA	0.31 ratio
GAGGUAGAUCAAGAGCUCGUUGAACUACUAGUGAAAGAAACGGAAGCAAGAUUUCCAGAUGCCGCAAAUGGGUUUAUUGAGGAAAUAAUUCAUUUUAAGAAUUAUUAUGAUCUGAAUGUA	0.222 ratio
AGUGGGAACAUUACUUUUGAUGAGAUUGUCAACAUUGCCCGGCAGAUGAGACACCGGUCUUUGGCCCGAGAACUUUCUGGAACUAUCAAGGAGAUCCUGGGUACUGCACAGUCUGUGGGC	0.112 ratio
AGAGACUGGGUCACAAACCCUGGGCUUUUCAAUCAGCCACUGACUUCCCUUCCUGUCAGCCGCAUACCCAUCUAUAAAUUACCAGAGGGAUCACCAACAUGGCUGGGAAUAUCCUGCAGU	0.314 ratio
UUUAUUGCAGCAGUUGACCUAGAUGAGAUGUCGUUCACUUUUACUGAGCUACAGAAAAACACCGAAAUCAGUGUCCAUAAAUUCUUUAACUUACUAAAAGAAAUUGAUACCAGUACCAAA	0.196 ratio
UUUCUUUUUCUUUUUCUUUUUAAAAUGUUAAUGCCCGUUGUCUUUCCUGGGCUGUUUGCCCGCGGAAGGAUGCCAGGGAAGCCAGCAGGAGCUAGGAGAGAGUCCGUGGAUCUCGAAAGA	0.257 ratio
